Measured values pooled from the literature.
Organism: Klebsiella pneumoniae

| SMILES | assay | test system | setting | MIC |
| --- | --- | --- | --- | --- |
| CN(C)[C@@H]1C(O)=C(C(N)=O)C(=O)[C@@]2(O)C(O)=C3C(=O)c4c(O)cnc(Cl)c4C[C@H]3C[C@@H]12.Cl |  | tet(A)-carrying |  | > 32 µg/mL |
| CC(C)C[C@H](NC(=O)[C@@H](NC(=O)[C@H](CCCNC(=N)N)NC(=O)[C@H](CCC(N)=O)NC(=O)[C@H](Cc1ccccc1)NC(=O)[C@H](Cc1ccc(O)cc1)NC(=O)[C@H](CC(N)=O)NC(=O)[C@H](Cc1c[nH]c2ccccc12)NC(=O)[C@@H](NC(=O)[C@H](CCCNC(=N)N)NC(=O)[C@H](CCCCN)NC(=O)[C@@H](N)Cc1ccccc1)C(C)C)C(C)C)C(=O)N[C@H](C(=O)N[C@@H](CCCCN)C(=O)N[C@@H](CCCCN)C(=O)N[C@@H](Cc1ccc(O)cc1)C(=O)N[C@@H](C)C(N)=O)C(C)C | broth dilution | ATCC 700603 |  | 12.5 µM |
| CCN1CCN(C(=O)N[C@@H](C(=O)N[C@@H]2C(=O)N3[C@@H]2SC(C)(C)[C@@H]3C(=O)O)c2ccccc2)C(=O)C1=O | broth microdilution | ATCC 43816 acrAB overexpressor |  | 4 µg/mL |
| CC(=O)N[C@@H](CC(C)C)C(=O)N[C@@H](CC(C)C)C(=O)N[C@@H](CCCCN)C(=O)N[C@@H](CC(C)C)C(=O)N[C@@H](CC(C)C)C(=O)N[C@@H](CCCCN)C(=O)N[C@@H](CCCCN)C(=O)N1CCC[C@H]1C(=O)N[C@@H](CC(C)C)C(=O)N[C@@H](CCCCN)C(=O)N[C@@H](CC(C)C)C(=O)N[C@@H](CC(C)C)C(=O)N[C@@H](CCCCN)C(N)=O | broth microdilution | ATCC 700603 | 18 h, 37 °C, compound alone | > 80 µM |
| C[C@H]1COCCN1c1nc(NCc2cccnc2C(F)(F)F)c2cccnc2n1 | broth microdilution |  |  | 128 µg/mL |
| C[C@@H](O)[C@H]1C(=O)N2C(C(=O)O)=C(SCCN=CN)C[C@H]12 |  | NCCP 15782 carbapenem-resistant, Mueller-Hinton broth | 16 h, 37 °C | > 128 µM |
| C[C@@H](O)[C@H]1C(=O)N2C(C(=O)O)=C(S[C@@H]3CN[C@H](C(=O)N(C)C)C3)[C@H](C)[C@H]12 |  | 1188718, multidrug-resistant |  | 0.03 µg/mL |
| C[C@H]1COc2c(N3CCN(C)CC3)c(F)cc3c(=O)c(C(=O)O)cn1c23 | agar dilution | 2146 NDM-1 |  | 128 µg/mL |
| CC[C@H](C)[C@H](NC(=O)[C@H](CCCCN)NC(=O)[C@H](Cc1c[nH]c2ccccc12)NC(=O)[C@H](Cc1c[nH]c2ccccc12)NC(=O)[C@H](CCCCN)NC(=O)[C@H](CCCCN)NC(=O)[C@H](CCCCN)NC(=O)[C@H](Cc1c[nH]c2ccccc12)NC(=O)[C@H](CCCCN)NC(=O)[C@H](CCCCN)NC(=O)[C@H](Cc1c[nH]c2ccccc12)NC(=O)[C@H](CCCCN)NC(=O)[C@H](CCCCN)NC(=O)[C@@H](NC(=O)[C@@H](NC(=O)[C@H](CCCCN)NC(=O)[C@@H](N)CCCNC(=N)N)[C@@H](C)CC)[C@@H](C)CC)C(=O)N[C@@H](Cc1c[nH]c2ccccc12)C(=O)N[C@@H](Cc1c[nH]c2ccccc12)C(=O)N[C@@H](CCCCN)C(=O)NCCOCCOCC(N)=O | broth microdilution | 10145 |  | 1.9 µg/mL |
| C[C@@H](O)[C@H]1C(=O)N2C(C(=O)O)=C(S[C@@H]3CN[C@H](C(=O)N(C)C)C3)[C@H](C)[C@H]12 | broth microdilution | parental, KPC-33 |  | 4 µg/mL |

Repeated from above:
| SMILES | assay | test system | setting | MIC |
| --- | --- | --- | --- | --- |
| CCN1CCN(C(=O)N[C@@H](C(=O)N[C@@H]2C(=O)N3[C@@H]2SC(C)(C)[C@@H]3C(=O)O)c2ccccc2)C(=O)C1=O | broth microdilution | ATCC 43816 acrAB overexpressor |  | 4 µg/mL |
